Measurements gathered from unrelated publications.
A part holds a random share of what one study measured.
Sequence of UniProt P06241 (whole entry, looked up): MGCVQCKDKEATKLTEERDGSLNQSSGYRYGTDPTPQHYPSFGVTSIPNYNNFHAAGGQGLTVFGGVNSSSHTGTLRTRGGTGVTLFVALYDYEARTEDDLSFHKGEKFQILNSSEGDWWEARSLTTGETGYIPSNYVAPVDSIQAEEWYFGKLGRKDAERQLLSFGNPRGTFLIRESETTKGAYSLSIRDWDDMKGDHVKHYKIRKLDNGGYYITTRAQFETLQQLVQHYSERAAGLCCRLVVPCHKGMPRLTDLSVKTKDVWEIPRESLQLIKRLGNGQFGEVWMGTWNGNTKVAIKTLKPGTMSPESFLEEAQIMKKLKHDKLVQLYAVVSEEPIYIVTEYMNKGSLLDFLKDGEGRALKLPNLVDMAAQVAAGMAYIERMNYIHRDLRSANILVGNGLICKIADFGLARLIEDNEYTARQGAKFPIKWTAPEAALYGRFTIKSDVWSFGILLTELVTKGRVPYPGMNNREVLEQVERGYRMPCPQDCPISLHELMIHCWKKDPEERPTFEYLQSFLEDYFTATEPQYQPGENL
Sequence of UniProt Q9UQB9 (whole entry, looked up): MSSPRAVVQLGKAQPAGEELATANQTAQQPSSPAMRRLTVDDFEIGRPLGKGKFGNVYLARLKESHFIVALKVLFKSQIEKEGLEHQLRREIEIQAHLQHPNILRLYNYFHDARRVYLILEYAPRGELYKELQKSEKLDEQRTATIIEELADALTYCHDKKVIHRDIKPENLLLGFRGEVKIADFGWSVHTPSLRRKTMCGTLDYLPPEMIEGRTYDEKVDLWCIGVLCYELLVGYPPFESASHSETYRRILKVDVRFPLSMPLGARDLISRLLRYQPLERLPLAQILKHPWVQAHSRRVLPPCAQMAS
Sequence of UniProt Q08881 (whole entry, looked up): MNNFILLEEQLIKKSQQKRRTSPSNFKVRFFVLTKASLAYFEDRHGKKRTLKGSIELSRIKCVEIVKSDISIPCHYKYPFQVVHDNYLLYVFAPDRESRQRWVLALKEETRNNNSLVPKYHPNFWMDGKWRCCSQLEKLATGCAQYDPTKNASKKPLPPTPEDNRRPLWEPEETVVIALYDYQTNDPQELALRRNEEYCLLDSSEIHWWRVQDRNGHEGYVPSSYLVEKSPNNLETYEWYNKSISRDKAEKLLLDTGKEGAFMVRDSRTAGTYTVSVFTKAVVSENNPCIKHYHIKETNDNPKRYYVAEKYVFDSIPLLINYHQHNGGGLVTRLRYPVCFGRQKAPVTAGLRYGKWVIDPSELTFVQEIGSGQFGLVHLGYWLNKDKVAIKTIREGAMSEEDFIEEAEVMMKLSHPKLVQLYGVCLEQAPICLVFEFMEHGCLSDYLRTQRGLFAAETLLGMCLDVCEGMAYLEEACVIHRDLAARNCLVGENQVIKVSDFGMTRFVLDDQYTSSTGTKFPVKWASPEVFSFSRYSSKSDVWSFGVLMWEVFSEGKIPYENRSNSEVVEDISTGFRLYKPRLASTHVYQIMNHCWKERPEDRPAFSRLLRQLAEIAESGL
Sequence of UniProt P42679 (whole entry, looked up): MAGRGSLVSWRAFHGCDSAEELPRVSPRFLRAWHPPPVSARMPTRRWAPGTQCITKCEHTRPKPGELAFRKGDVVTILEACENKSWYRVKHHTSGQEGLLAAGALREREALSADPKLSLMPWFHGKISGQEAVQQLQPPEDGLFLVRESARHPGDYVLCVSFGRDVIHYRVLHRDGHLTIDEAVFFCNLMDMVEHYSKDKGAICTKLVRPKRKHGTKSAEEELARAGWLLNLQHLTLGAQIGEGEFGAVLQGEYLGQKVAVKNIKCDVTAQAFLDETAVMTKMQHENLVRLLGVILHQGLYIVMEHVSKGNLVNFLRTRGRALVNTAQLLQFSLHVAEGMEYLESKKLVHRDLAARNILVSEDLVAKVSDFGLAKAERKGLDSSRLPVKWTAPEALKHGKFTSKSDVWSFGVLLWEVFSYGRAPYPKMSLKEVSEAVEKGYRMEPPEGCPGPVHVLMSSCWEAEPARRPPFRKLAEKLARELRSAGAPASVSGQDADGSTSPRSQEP
Sequence of UniProt P25100 (whole entry, looked up): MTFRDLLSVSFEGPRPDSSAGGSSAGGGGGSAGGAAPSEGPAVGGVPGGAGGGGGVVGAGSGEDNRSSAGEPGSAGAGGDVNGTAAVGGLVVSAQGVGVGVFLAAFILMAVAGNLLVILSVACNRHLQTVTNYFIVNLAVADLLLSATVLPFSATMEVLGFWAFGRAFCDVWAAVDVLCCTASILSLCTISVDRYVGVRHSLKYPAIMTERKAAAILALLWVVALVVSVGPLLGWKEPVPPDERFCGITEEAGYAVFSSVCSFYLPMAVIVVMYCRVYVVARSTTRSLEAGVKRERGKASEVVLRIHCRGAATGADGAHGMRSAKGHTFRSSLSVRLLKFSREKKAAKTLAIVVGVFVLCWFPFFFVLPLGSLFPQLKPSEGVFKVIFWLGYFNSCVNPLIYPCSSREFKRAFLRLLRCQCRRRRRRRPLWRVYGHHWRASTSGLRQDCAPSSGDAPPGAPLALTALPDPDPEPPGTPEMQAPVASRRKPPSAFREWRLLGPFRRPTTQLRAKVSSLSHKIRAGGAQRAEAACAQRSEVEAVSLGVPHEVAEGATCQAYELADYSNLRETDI
Sequence of UniProt Q96RG2 (whole entry, looked up): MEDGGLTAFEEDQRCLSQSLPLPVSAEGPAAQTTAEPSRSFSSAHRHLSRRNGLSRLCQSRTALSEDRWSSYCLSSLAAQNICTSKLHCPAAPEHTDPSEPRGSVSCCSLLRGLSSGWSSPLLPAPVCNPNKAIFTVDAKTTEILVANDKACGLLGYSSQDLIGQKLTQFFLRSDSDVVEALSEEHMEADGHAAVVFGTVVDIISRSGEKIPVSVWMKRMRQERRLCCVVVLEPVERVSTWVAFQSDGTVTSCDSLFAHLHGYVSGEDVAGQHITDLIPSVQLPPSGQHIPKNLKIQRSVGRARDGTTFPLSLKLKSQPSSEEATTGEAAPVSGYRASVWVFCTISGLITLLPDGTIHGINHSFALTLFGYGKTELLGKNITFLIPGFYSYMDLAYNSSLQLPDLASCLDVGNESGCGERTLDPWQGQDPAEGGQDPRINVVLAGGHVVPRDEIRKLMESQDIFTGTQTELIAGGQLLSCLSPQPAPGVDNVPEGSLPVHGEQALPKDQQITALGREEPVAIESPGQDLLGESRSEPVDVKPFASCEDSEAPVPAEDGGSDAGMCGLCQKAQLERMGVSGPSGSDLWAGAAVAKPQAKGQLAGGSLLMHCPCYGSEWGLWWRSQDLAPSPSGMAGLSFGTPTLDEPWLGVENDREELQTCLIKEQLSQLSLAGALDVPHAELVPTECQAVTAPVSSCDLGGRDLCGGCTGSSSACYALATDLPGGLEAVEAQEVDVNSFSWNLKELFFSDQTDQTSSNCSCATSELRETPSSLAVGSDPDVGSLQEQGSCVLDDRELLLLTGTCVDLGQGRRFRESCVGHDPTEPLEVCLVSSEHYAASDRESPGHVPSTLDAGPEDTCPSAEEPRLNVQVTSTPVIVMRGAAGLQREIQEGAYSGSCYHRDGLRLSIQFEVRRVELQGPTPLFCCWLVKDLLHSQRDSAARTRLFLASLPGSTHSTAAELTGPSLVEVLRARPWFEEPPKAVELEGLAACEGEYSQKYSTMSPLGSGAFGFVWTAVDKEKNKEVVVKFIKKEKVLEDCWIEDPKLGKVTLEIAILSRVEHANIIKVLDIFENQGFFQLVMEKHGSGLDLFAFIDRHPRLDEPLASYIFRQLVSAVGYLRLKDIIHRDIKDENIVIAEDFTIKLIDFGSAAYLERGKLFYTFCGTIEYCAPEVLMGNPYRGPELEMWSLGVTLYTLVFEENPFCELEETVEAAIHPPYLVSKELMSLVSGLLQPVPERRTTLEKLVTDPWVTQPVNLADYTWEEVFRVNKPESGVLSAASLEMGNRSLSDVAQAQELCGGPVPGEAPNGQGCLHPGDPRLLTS
Sequence of UniProt O00506 (whole entry, looked up): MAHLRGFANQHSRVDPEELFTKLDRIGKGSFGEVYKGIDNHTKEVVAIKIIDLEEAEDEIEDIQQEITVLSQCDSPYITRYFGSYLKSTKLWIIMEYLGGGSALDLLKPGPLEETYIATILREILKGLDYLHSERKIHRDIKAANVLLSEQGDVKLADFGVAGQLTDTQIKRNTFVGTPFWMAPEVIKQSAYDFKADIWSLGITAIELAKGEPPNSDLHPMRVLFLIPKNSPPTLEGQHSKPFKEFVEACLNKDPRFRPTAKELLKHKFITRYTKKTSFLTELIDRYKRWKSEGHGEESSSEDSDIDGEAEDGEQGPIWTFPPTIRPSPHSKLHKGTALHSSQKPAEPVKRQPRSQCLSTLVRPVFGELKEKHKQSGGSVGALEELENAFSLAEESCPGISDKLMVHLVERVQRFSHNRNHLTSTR

Set 1
SMILES: CCC(=O)N[C@@H]1CC[C@H](C(=O)N(C)c2ccc(-c3nc4ccccc4o3)cc2)C1
Read-out: binding
Method: radioligand binding
Concentration: 10 µM
It gave 17.9% for inhibition (CHRM2 (Homo sapiens, UniProt P08172)).
The inhibition was 55.3% (HRH4 (Homo sapiens, UniProt Q9H3N8)).
For ADRA2C (Homo sapiens, UniProt P18825): inhibition read -2.55%.
For HTR7 (Homo sapiens, UniProt P34969): inhibition read -13.7%.
For ADRA1D (Homo sapiens, UniProt P25100): inhibition read -19.6%.
The inhibition was -1.16% (DRD1 (Homo sapiens, UniProt P21728)).
The inhibition was 5.19% (CHRM4 (Homo sapiens, UniProt P08173)).
The inhibition was -9.11% (HTR3A (Homo sapiens, UniProt P46098)).
It gave 18.6% for inhibition (HRH1 (Homo sapiens, UniProt P35367)).
It gave -2.82% for inhibition (ADRB3 (Homo sapiens, UniProt P13945)).
ADRA2B (Homo sapiens, UniProt P18089) — inhibition: 7.05%.
The inhibition was -11.5% (HRH2 (Homo sapiens, UniProt P25021)).
ADRA1B (Homo sapiens, UniProt P35368) — inhibition: -6.47%.
HTR5A (Homo sapiens, UniProt P47898) — inhibition: -3.5%.

Set 2
Structure (SMILES): O=C1Cc2c([nH]c3ccc(Br)cc23)-c2ccccc2N1
Read-out: enzyme activity
Mode: inhibitor
Concentration: 0.5 µM
Baseline: control
For MATK (Homo sapiens, UniProt P42679): remaining activity read 93.6%.
The remaining activity was 102% (ITK (Homo sapiens, UniProt Q08881)).
For FER (Homo sapiens, UniProt P16591): remaining activity read 89.7%.
For SRC (Homo sapiens, UniProt P12931): remaining activity read 71.3%.
For CDC42BPA (Homo sapiens, UniProt Q5VT25): remaining activity read 99%.
LIM domain kinase 1 (LIMK1, Homo sapiens, UniProt P53667) — remaining activity: 99.2%.
PKN1 (Homo sapiens, UniProt Q16512) — remaining activity: 101%.
It gave 74.4% for remaining activity (FGR (Homo sapiens, UniProt P09769)).
It gave 98.8% for remaining activity (STK25 (Homo sapiens, UniProt O00506)).
The remaining activity was 76.8% (MARK3 (Homo sapiens, UniProt P27448)).
The remaining activity was 98% (PASK (Homo sapiens, UniProt Q96RG2)).
It gave 78.7% for remaining activity (FLT4 (Homo sapiens, UniProt P35916)).
The remaining activity was 101% (Insulin receptor (INSR, Homo sapiens, UniProt P06213)).
FYN (Homo sapiens, UniProt P06241) — remaining activity: 73.4%.
For NEK11 (Homo sapiens, UniProt Q8NG66): remaining activity read 107%.
The remaining activity was 81.7% (Cyclin-dependent kinase 3, with cyclin E (CDK3, Homo sapiens, UniProt Q00526)).
It gave 99.9% for remaining activity (AKT1 (Homo sapiens, UniProt P31749)).
For TAOK3 (Homo sapiens, UniProt Q9H2K8): remaining activity read 82.8%.
ALK (Homo sapiens, UniProt Q9UM73) — remaining activity: 90.8%.
The remaining activity was 100% (PRKX (Homo sapiens, UniProt P51817)).
The remaining activity was 98.7% (NLK (Homo sapiens, UniProt Q9UBE8)).

Set 3
Compound: COc1cc(Nc2ncc(F)c(Nc3ccc4c(n3)N(COP(=O)(O)O)C(=O)C(C)(C)O4)n2)cc(OC)c1OC
The EC50 was 0.033 µM (Aurora kinase C (AURKC, Homo sapiens, UniProt Q9UQB9); kinase–CDC37 interaction; kinome plate 3@E02).
For BRAF (Homo sapiens, UniProt P15056, G469A); kinase-HSP90-CDC37 interaction, LUMIER; human cells: EC50 read 0.389 µM.
It gave 0.992 µM for EC50 (FGFR1 (Homo sapiens, UniProt P11362); kinase–CDC37 interaction, inhibitor; human cells; FGFR1OP-FGFR1 fusion kinase).
The EC50 was 9.97 µM (MYLK4 (Homo sapiens, UniProt Q86YV6); kinase–CDC37 interaction).

Set 4
Target: Beta-1 adrenergic receptor (ADRB1, Homo sapiens, UniProt P08588)
Sequence of UniProt P08588 (whole entry, looked up): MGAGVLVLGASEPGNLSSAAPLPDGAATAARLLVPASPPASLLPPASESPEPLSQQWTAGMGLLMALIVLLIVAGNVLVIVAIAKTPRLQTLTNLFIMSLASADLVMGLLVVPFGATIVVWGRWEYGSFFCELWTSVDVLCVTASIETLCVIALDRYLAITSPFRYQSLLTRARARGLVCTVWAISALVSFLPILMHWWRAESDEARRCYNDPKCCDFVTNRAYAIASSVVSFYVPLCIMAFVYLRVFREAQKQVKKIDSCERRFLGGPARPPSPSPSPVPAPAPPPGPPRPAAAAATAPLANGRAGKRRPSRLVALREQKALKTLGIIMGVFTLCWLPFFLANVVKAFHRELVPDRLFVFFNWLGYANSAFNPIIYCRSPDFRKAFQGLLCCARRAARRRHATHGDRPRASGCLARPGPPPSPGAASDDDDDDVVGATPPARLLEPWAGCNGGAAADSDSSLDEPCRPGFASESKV
Mode: agonist
For CN(CC(O)COc1cccc(CNCCc2ccc(F)cc2)c1)C1CCCCC1 (stereo not drawn), the EC50 was at least 100 µM.
COc1ccc(S(=O)(=O)N2CCN(c3ccccc3OC)CC2)cc1OC gave an EC50 of at least 100 µM.
The EC50 of C[C@@H](CN1CCC(Cc2ccccc2)CC1)[C@@H](O)c1ccc(O)cc1 is reported as at least 100 µM.
CC(C)c1ccc(Nc2n[nH]c(C(O)c3ccccc3)n2)cc1 (stereo not drawn) has an EC50 of at least 100 µM.
The EC50 of NCCCN(CCCCNCCCNC(=O)CCc1ccc(O)c(O)c1)C(=O)CCc1ccc(O)c(O)c1 is reported as 7.08 µM.
The EC50 of C=CCN1CCN(Cc2cccc(OCC(O)CN(C)C3CCCCC3)c2)CC1 (stereo not drawn) is reported as at least 100 µM.
The EC50 of CC(=O)Oc1ccc2cc(-c3nc4c(s3)CCc3ccccc3-4)c(=O)oc2c1 is reported as at least 100 µM.
The EC50 of Cc1noc2c(-c3cccnc3NC3CCN(C)CC3)cc(-c3ccccc3)nc12 is reported as at least 100 µM.
With COc1ccccc1N1CCN(C(=O)c2ccc(-c3cccc(C(F)(F)F)c3)o2)CC1 the EC50 was at least 100 µM.
COc1ccccc1-c1ncc2c(n1)OCCN(c1cccc(C(F)(F)F)c1)C2=O has an EC50 of at least 100 µM.
For Cc1cc(=O)oc2cc(O)c(O)cc12, the EC50 was at least 100 µM.
The EC50 of CCCc1cc(=O)n2nc(N(CC)Cc3cnn(C)c3)sc2n1 is reported as at least 100 µM.

Repeated from above (set 4):
The EC50 of CC(=O)Oc1ccc2cc(-c3nc4c(s3)CCc3ccccc3-4)c(=O)oc2c1 is reported as at least 100 µM.
The EC50 of C[C@@H](CN1CCC(Cc2ccccc2)CC1)[C@@H](O)c1ccc(O)cc1 is reported as at least 100 µM.
With COc1ccccc1N1CCN(C(=O)c2ccc(-c3cccc(C(F)(F)F)c3)o2)CC1 the EC50 was at least 100 µM.
The EC50 of NCCCN(CCCCNCCCNC(=O)CCc1ccc(O)c(O)c1)C(=O)CCc1ccc(O)c(O)c1 is reported as 7.08 µM.
CC(C)c1ccc(Nc2n[nH]c(C(O)c3ccccc3)n2)cc1 (stereo not drawn) has an EC50 of at least 100 µM.
COc1ccccc1-c1ncc2c(n1)OCCN(c1cccc(C(F)(F)F)c1)C2=O has an EC50 of at least 100 µM.
